Experimental data of several laboratories.
Protocols differ between the studies behind these lines.
Organism: Klebsiella pneumoniae

CS(=O)(=O)Nc1ncn(-c2cc(F)c(COc3ccc(OS(=O)(=O)F)cc3)c(F)c2)n1  MIC: > 50 µM
CC(=O)N[C@@H](CCCCN)C(=O)N[C@@H](CCCCN)C(=O)N[C@@H](CC(C)C)C(=O)N[C@@H](CC(C)C)C(=O)N[C@@H](CCCCN)C(=O)N[C@@H](CC(C)C)C(=O)N[C@@H](CC(C)C)C(=O)N[C@@H](CCCCN)C(=O)N[C@@H](CCCCN)C(=O)N1CCC[C@H]1C(=O)N[C@@H](CC(C)C)C(=O)N[C@@H](C)C(=O)N[C@@H](CC(C)C)C(=O)N[C@@H](CC(C)C)C(=O)N[C@@H](CCCCN)C(N)=O  MIC (broth microdilution; ATCC 700603; 18 h, 37 °C, compound alone): > 80 µM
COCCNc1nc(Cl)c2c(c1O)C(=O)C1=C(O)[C@]3(O)C(=O)C(C(N)=O)=C(O)[C@@H](N(C)C)[C@@H]3C[C@@H]1C2.Cl.Cl.Cl  MIC (tet(A)-carrying): > 32 µg/mL
C[C@H]1COc2c(N3CCN(C)CC3)c(F)cc3c(=O)c(C(=O)O)cn1c23  MIC (1188718, multidrug-resistant): 1 µg/mL
CN(C)[C@@H]1C(O)=C(C(N)=O)C(=O)[C@@]2(O)C(O)=C3C(=O)c4c(O)cccc4[C@@](C)(O)[C@H]3C[C@@H]12  MIC (broth microdilution; ATCC 43816 acrAB overexpressor): 4 µg/mL
CC[C@H](C)[C@H](NC(=O)CNC(=O)[C@H](CC(=O)O)NC(=O)[C@H](CCCNC(=N)N)NC(=O)[C@@H](NC(=O)[C@H](CC(N)=O)NC(=O)[C@H](CCCNC(=N)N)NC(=O)CNC(=O)[C@@H](NC(=O)[C@H](CCCCN)NC(=O)[C@H](CCC(=O)O)NC(=O)[C@@H](NC(=O)[C@H](CCCCN)NC(=O)[C@H](CCCCN)NC(=O)[C@H](Cc1ccccc1)NC(=O)[C@@H](NC(=O)[C@H](CCCCN)NC(=O)[C@H](Cc1c[nH]c2ccccc12)NC(=O)[C@@H](N)CCCNC(=N)N)[C@@H](C)CC)[C@@H](C)CC)C(C)C)C(C)C)C(=O)N[C@H](C(=O)N[C@@H](CCCCN)C(=O)N[C@@H](C)C(=O)NCC(=O)N1CCC[C@H]1C(=O)N[C@@H](C)C(=O)N[C@H](C(=O)N[C@@H](C)C(=O)N[C@H](C(=O)N[C@H](C(=O)NCC(=O)N[C@@H](CCC(N)=O)C(=O)N[C@@H](C)C(=O)N[C@@H](C)C(=O)N[C@H](C(=O)N[C@H](C(=O)N[C@H](C(=O)N[C@@H](CCCCN)C(N)=O)C(C)C)C(C)C)[C@@H](C)O)C(C)C)C(C)C)C(C)C)[C@@H](C)CC  MIC (NCCP 15782 carbapenem-resistant): 2 µM
CC[C@H](C)CCCCC(=O)N[C@@H](CCN)C(=O)N[C@H](C(=O)N[C@@H](CCN)C(=O)N[C@H]1CCNC(=O)[C@H]([C@@H](C)O)NC(=O)[C@H](CCN)NC(=O)[C@H](CCN)NC(=O)[C@H](CC(C)C)NC(=O)[C@@H](CC(C)C)NC(=O)[C@H](CCN)NC1=O)[C@@H](C)O  MIC (broth microdilution; ATCC 13883): 0.25 µg/mL
CCCCCCCCCC(=O)N[C@@H](CCCCN)C(=O)N[C@@H](CCCCN)C(=O)N[C@@H](C)C(=O)N[C@@H](CC(C)C)C(=O)N[C@@H](CCCCN)C(=O)N[C@@H](CC(C)C)C(=O)N[C@@H](C)C(=O)N[C@@H](CCCCN)C(=O)N[C@@H](CCCCN)C(=O)N1CCC[C@H]1C(=O)N[C@@H](CC(C)C)C(=O)N[C@@H](CCCCN)C(=O)N[C@@H](CC(C)C)C(=O)N[C@@H](CC(C)C)C(=O)N[C@@H](CCCCN)C(N)=O  MIC (broth microdilution; ATCC 700603; 18 h, 37 °C, compound alone): > 80 µM
CC1=C[C@@H]2CN(C(=O)N2OS(=O)(=O)O)[C@@H]1C(N)=O  MIC (ATCC BAA-2146, ESBL and NDM-positive; compound alone): > 128 µg/mL
CC[C@H](C)[C@H](NC(=O)CN)C(=O)NCC(=O)N[C@@H](C)C(=O)N[C@H](C(=O)N[C@@H](CC(C)C)C(=O)N[C@@H](CCCCN)C(=O)N[C@H](C(=O)N[C@@H](CC(C)C)C(=O)N[C@H](C(=O)N[C@H](C(=O)NCC(=O)N[C@@H](CC(C)C)C(=O)N1CCC[C@H]1C(=O)N[C@@H](C)C(=O)N[C@@H](CC(C)C)C(=O)N[C@H](C(=O)N[C@@H](CO)C(=O)N[C@@H](Cc1c[nH]c2ccccc12)C(=O)N[C@H](C(=O)N[C@@H](CCCCN)C(=O)N[C@@H](CCCNC(=N)N)C(=O)N[C@@H](CCCCN)C(=O)N[C@@H](CCCNC(=N)N)C(=O)N[C@@H](CCC(N)=O)C(=O)N[C@@H](CCC(N)=O)C(N)=O)[C@@H](C)CC)[C@@H](C)CC)[C@@H](C)O)[C@@H](C)O)C(C)C)C(C)C  MIC (broth microdilution; NCTC 5055; 24 h, 37 °C): 9 µg/mL

Some of these lines once more:
CC[C@H](C)[C@H](NC(=O)CNC(=O)[C@H](CC(=O)O)NC(=O)[C@H](CCCNC(=N)N)NC(=O)[C@@H](NC(=O)[C@H](CC(N)=O)NC(=O)[C@H](CCCNC(=N)N)NC(=O)CNC(=O)[C@@H](NC(=O)[C@H](CCCCN)NC(=O)[C@H](CCC(=O)O)NC(=O)[C@@H](NC(=O)[C@H](CCCCN)NC(=O)[C@H](CCCCN)NC(=O)[C@H](Cc1ccccc1)NC(=O)[C@@H](NC(=O)[C@H](CCCCN)NC(=O)[C@H](Cc1c[nH]c2ccccc12)NC(=O)[C@@H](N)CCCNC(=N)N)[C@@H](C)CC)[C@@H](C)CC)C(C)C)C(C)C)C(=O)N[C@H](C(=O)N[C@@H](CCCCN)C(=O)N[C@@H](C)C(=O)NCC(=O)N1CCC[C@H]1C(=O)N[C@@H](C)C(=O)N[C@H](C(=O)N[C@@H](C)C(=O)N[C@H](C(=O)N[C@H](C(=O)NCC(=O)N[C@@H](CCC(N)=O)C(=O)N[C@@H](C)C(=O)N[C@@H](C)C(=O)N[C@H](C(=O)N[C@H](C(=O)N[C@H](C(=O)N[C@@H](CCCCN)C(N)=O)C(C)C)C(C)C)[C@@H](C)O)C(C)C)C(C)C)C(C)C)[C@@H](C)CC  MIC (NCCP 15782 carbapenem-resistant): 2 µM
